Measured values pooled from the literature.
Lines come from different studies, so protocols differ.

SMILES | target or system | test | system | setting | endpoint | result
OCCN1C[C@H](O)[C@@H](O)[C@H](O)[C@H]1CO | human coronavirus OC43 | virus-induced cell killing | MRC-5 | screen | maximum inhibition | 16%
CC[C@H](C)C(=O)O[C@H]1C[C@H](O)C=C2C=C[C@H](C)[C@H](CC[C@@H](O)C[C@@H](O)CC(=O)O)[C@H]21 | – | – | OATP1B1/1B3 humanized mouse | oral, dose not given | AUC(0-t) | 1.35 µM·h
CC(=O)c1c(C)c2cnc(Nc3ccc(C4CCN(CCS(C)(=O)=O)CC4)cn3)nc2n(C2CCCC2)c1=O | – | – | human, plasma | oral, 75 mg twice daily, day 21, multiple doses, with: letrozole | AUC(0-t) | 1150 ng·h/mL
O=c1ccc2ncc(=O)n3c2n1C[C@H]3CN1CCC(NCc2cc3c(cn2)OCCC3)CC1 | – | – | healthy human volunteers, plasma | oral, dose not given, arithmetic mean, with: itraconazole | AUC(0-t) | 26800 ng·h/mL
COc1ccc(C[C@@H]2NC(=O)[C@H]([C@@H](C)O)NC(=O)[C@@H]3[C@@H]4CCN3C(=O)[C@@H]3Cc5cn(c6ccc(F)cc56)CCCCCCN(Cc5ccc(cc5)CCNC(=O)[C@]5(C)CCCN5C2=O)C(=O)CCC(=O)N[C@@H](C)C(=O)N[C@H](CNC(=O)CCCCC[N+](C)(C)C)C(=O)N[C@@H](Cc2cccc(c2)CNC(=O)CO4)C(=O)N3)cc1 | – | – | human, plasma | oral, 40 mg, high-fat breakfast 30 min before, with: sodium caprate 720 mg | AUC(0-t) | 0.209 µM·h
C[C@H](NC(=O)c1c(C(F)F)nn(C)c1Oc1cccc(C(F)(F)F)c1)c1ccc(C(=O)O)cc1 | – | – | human, plasma | 750 mg, cycle 1 day 8, mean | AUC(0-t) | 5930 ng·h/mL
OCc1ncc2n1-c1ccc(Cl)cc1C(c1ccccc1F)=NC2 | – | – | human, plasma | oral, 7.5 mg of midazolam, day 19, arithmetic mean, no amenamevir | AUC(0-t) | 44.1 ng·h/mL
C[C@]12CC[C@@H]3c4ccc(O)cc4C[C@@H](CCCCCCCCC[S+]([O-])CCCC(F)(F)C(F)(F)F)[C@H]3[C@@H]1CC[C@@H]2O (stereo partly shown) | human coronavirus OC43 | virus-induced cell killing | MRC-5 | screen | maximum inhibition | 2.18%
OCc1ncc2n1-c1ccc(Cl)cc1C(c1ccccc1F)=NC2 | – | – | human | dose not given, metabolite of midazolam, with: midazolam alone | AUC(0-t) | 11.5 ng·h/mL
OCc1ncc2n1-c1ccc(Cl)cc1C(c1ccccc1F)=NC2 | – | – | human, plasma | oral, 2.5 mg, day 1 | AUC(0-t) | 9.6 ng·h/mL

For quick reference, copied from above:
SMILES | target or system | test | system | setting | endpoint | result
C[C@H](NC(=O)c1c(C(F)F)nn(C)c1Oc1cccc(C(F)(F)F)c1)c1ccc(C(=O)O)cc1 | – | – | human, plasma | 750 mg, cycle 1 day 8, mean | AUC(0-t) | 5930 ng·h/mL
OCc1ncc2n1-c1ccc(Cl)cc1C(c1ccccc1F)=NC2 | – | – | human, plasma | oral, 7.5 mg of midazolam, day 19, arithmetic mean, no amenamevir | AUC(0-t) | 44.1 ng·h/mL
